Results gathered from unrelated publications.
A part holds a random share of what one study measured.

Study 1 — technique: protein binding microarray; molecule type: double-stranded DNA, one strand shown; medium: in vitro; tested at: not given; reference: not given; direction: higher = stronger binding
Target: Histone acetyltransferase KAT6A, both winged helices, GST fusion (KAT6A, Homo sapiens, UniProt Q92794, residues 1-181)
Setting: 8-mer, flanks averaged, mean of 2 arrays, mostly near background
Construct (chain): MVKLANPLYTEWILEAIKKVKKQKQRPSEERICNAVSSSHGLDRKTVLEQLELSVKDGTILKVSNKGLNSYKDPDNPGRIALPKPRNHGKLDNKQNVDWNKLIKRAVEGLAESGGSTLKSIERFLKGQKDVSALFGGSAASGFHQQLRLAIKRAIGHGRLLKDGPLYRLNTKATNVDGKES
Sequence	E-score
ACACTAAG	-0.21
GAACACAC	0.0808
AGGTTATA	-0.106
CATGCGAG	0.0131
CGTATGTA	0.044
ACGCGCGT	0.428

Study 2 — technique: competition protein-binding microarray; molecule type: double-stranded DNA, one strand shown; medium: in vitro; tested at: 2 µM; added: Cbf1 competitor, 0.05 µM; direction: higher = stronger binding
Target: Phosphate system positive regulatory protein PHO4, full length, GST-tagged (PHO4, Saccharomyces cerevisiae, UniProt P07270, residues 1-312)
Setting: whole 60-bp probe, lowest competitor level
Residues (chain): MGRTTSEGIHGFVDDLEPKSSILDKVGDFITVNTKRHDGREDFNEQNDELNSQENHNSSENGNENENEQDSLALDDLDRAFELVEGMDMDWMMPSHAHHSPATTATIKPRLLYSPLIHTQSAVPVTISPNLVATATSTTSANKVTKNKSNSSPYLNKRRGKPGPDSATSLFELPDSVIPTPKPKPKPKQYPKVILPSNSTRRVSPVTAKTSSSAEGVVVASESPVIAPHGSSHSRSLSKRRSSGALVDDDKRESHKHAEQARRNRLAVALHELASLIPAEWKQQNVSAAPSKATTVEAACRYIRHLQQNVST
Sequence	fluorescence intensity
TGGAGGGTGTACTATCACATGCAGCCTTTGTTTCTAGTCTTGATTCGCTTGACGCTGCTG	7470 a.u.
CAAACAACAATAATCCACGTGCTTTTCGCGTTTTTTGTCTTGATTCGCTTGACGCTGCTG	17000 a.u.
TTTTTCCCTAGAAAAATCGTGCTAACAGGTATATCAGTCTTGATTCGCTTGACGCTGCTG	6430 a.u.
AGTTAGAGGAAAAAGCACGCAAAAAGGGCACACAGGGTCTTGATTCGCTTGACGCTGCTG	6470 a.u.

Study 3 — technique: protein-binding microarray; molecule type: double-stranded DNA, one strand shown; medium: in vitro; tested at: 2540 nM top; setting: 60-bp whole probe; added: salmon DNA 0.4 mg/ml; reference: random background probes; direction: higher = stronger binding
Target: Interferon regulatory factor 3, full length, phosphomimetic (IRF3, Homo sapiens, UniProt Q14653, residues 1-427, S386D/S396D/S398D/S402D/T404D/S405D)
Construct (chain): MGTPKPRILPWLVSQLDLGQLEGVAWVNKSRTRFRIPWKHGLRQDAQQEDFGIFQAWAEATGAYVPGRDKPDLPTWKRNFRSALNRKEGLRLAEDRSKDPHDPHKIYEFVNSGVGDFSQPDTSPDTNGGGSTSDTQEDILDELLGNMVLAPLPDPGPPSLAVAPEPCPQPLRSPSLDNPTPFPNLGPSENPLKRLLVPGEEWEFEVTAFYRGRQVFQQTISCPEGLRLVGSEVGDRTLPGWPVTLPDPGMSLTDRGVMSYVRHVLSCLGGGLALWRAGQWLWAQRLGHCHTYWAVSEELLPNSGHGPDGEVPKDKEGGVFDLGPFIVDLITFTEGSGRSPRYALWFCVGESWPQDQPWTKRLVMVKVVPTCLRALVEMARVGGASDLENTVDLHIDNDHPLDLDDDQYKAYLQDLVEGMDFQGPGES
Sequence	fitted relative affinity
GCCTAGCACCACGGACTGGGTTTCGGGACGTGCTAGGTCTTGATTCGCTTGACGCTGCTG	1.2 z-score
GCCTAGCACTTAGAGATCGGGACTGGATTAGTGCTAGTCTTGATTCGCTTGACGCTGCTG	-0.339 z-score
GCCTAGCACTTAGGTATCCTACTGCTTTTGTGCTAGGTCTTGATTCGCTTGACGCTGCTG	2.21 z-score
GCCTAGCACGACCAGGGGCCACAGCCTCAGTGCTAGGTCTTGATTCGCTTGACGCTGCTG	-1.1 z-score

Further values, each from its own experiment
Substance	target	assay	system	conditions	scale	quantity	result
PhoQ, residues 284 288 289 292 302 303 ALVSVA	PhoP, residues 12 14 15 18 19 NIMAP (Escherichia coli, UniProt P23836)	Sort-seq, item: YFP reporter	E. coli	PhoQ-PhoP variant library, added: 10 µM Mg2+	reference: high Mg2+ state, higher = stronger signaling	fold induction	0.796

Repeated from above (study 1):
Sequence	E-score
CATGCGAG	0.0131
